# Results pooled from the literature.
# Values joined by “and” are separate records of one study, mostly repeats; a detail may differ.
# TDP1: Tyrosyl-DNA phosphodiesterase 1 (TDP1, Homo sapiens, UniProt Q9NUW8)
# Chain of UniProt Q9NUW8 (whole entry, looked up): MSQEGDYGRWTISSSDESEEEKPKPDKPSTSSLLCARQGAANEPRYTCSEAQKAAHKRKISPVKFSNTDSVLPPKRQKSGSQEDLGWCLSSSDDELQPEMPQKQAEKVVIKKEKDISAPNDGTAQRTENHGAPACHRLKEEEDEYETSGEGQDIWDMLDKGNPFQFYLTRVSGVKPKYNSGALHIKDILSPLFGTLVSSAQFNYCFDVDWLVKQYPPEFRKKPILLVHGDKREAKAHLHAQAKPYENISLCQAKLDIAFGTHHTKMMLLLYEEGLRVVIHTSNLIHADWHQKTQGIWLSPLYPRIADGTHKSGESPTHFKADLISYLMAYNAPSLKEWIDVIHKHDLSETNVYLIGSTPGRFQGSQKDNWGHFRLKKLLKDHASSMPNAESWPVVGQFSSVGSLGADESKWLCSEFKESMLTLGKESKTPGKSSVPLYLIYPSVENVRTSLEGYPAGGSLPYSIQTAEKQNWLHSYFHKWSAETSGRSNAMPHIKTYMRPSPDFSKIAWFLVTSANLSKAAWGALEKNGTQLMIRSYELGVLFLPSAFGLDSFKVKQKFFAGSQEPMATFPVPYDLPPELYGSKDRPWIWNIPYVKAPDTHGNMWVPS
SMILES,tested on,assay,conditions,scale,measurement,result
CNS(=O)(=O)Nc1nccc(Cc2c(C)c3ccc(Oc4ncccc4F)cc3oc2=O)c1F,NCI-H1944,cell viability,7 days,,IC50,4.45 nM
COc1cc(N(C)CCN(C)C)c(NC(=O)/C=C/c2ccc3nc(C)ccc3c2)cc1Nc1nccc(-c2cn(C)c3ccccc23)n1,NCI-H1975,"cell growth or viability, MTT","0.5 µM, 72 h",,inhibition,72.5%
O=C(O)c1ccc(Nc2c(-c3ccc(CON=Cc4cnc(O)c(Cl)c4)cc3)nc3cc(-c4ccccc4)ccn23)cc1 (mixture of isomers),TDP1,"enzyme activity, inhibitor","100 µM, unpurified compound",,inhibition,99.7%
CCCCCCc1cccc([C@H](O)C[C@H](CO)NC(=O)CCCCCCCCCCBr)c1,HeLa,"HPLC-MS-MS lipidomics, refers to: C20 SM and ceramide","1 µM, 24 h",reference: SM over Cer,SM/Cer ratio,"41 ,0"
O=C(O)c1ccc(Nc2c(-c3ccc(CON=Cc4cc5cccnc5s4)cc3)nc3cc(-c4ccccc4)ccn23)cc1,TDP1,"enzyme activity, inhibitor","100 µM, unpurified compound",,inhibition,85.6%
CC(C)c1ccc(N(C)c2ccc3c(c2)OCC[C@H]3CNc2cnccc2C(=O)O)cc1,143B,"cell viability, CellTiter-Glo",7 days,,IC50,14.4 nM
O=C(C[Se]C(=O)c1ccc2ccccc2c1)Nc1cccc(C(F)(F)F)c1,NCI60 CNS subpanel,cell growth,"10 µM, 48 h, one-dose",,mean growth percent,-91.6%
COc1cc(N2CCN(C(=O)CN)CC2)ccc1Nc1ncc(Cl)c(Nc2ccccc2P(C)(C)=O)n1,NCI-H3122,CCK-8,"100 nM, 48 h",,viability,39%
CN1CCCNC(=O)c2cccc(c2)C(=O)NCCCN(C)CCCNc2cccc3c2C(=O)c2cccc(c2C3=O)NCCC1,SAS,"RNA-Seq, refers to: CCDC51 mRNA","1 µM, 6 h",reference: untreated cells,log2 fold change,0.79
C=CC(=O)Nc1cc(Nc2nccc(-c3c(-c4cccc(F)c4)n(C)c4ccccc34)n2)c(OC)cc1N(C)CCN(C)C,NCI-H1975,"cell growth or viability, MTT","0.5 µM, 72 h",,inhibition,70.4%
NC(=O)c1ccc(-c2ccccc2Cl)c2c3c([nH]c12)CC[C@H](N)C3,DOHH-2,cell growth or viability,,,IC50,23.2 nM
COC(=O)c1cc(NC2=NC(=O)C(=Cc3ccc(C)cc3)S2)ccc1OC(C)=O,MCF7,"GC-MS, refers to: D-Mannose",1 µM,reference: DMSO,metabolite level,-0.42 fold change
O=C(C[Se]C(=O)c1cccnc1Nc1cccc(C(F)(F)F)c1)Nc1cccc(C(F)(F)F)c1,NCI60 CNS subpanel,cell growth,"10 µM, 48 h, one-dose",,mean growth percent,-92.4%
N#Cc1cccc(/C=C/C(=O)c2ccc(O)cc2)c1,U-87 MG,refers to: HSPA6,concentration not given,reference: untreated,fold change,876
COC(=O)c1cncc(N2Cc3cnn(Cc4ccc(F)cc4)c3C2)n1,HEK293 expressing GluA1 and GluA2,"glutamate excitotoxic cell death, CellTox Green",together with: glutamate,,IC50,90 nM
Cn1ncc2cc(-c3cncc(Cl)c3N3CCC4(CCNC4=O)CC3)ccc21,LS174T,"gene expression, microarray, refers to: HOXB5 mRNA","concentration not given, 4 h",reference: untreated cells,log2 fold change,1.38
COc1cc(N(C)CCN(C)C)c(NC(=O)/C=C/C2=Cc3ccccc3C2)cc1Nc1nccc(-c2cn(C)c3ccccc23)n1,NCI-H1975,"cell growth or viability, MTT","0.5 µM, 72 h",,inhibition,68.1%
COc1ccc2c(c1)c(CC(=O)[Se]CC(=O)Nc1cccc(C(F)(F)F)c1)c(C)n2C(=O)c1ccc(Cl)cc1,NCI60 CNS subpanel,cell growth,"10 µM, 48 h, one-dose",,mean growth percent,-86.6%
CCN(CC)CC(=O)Nc1cccc(-n2cc(-c3ccc4ccc(-c5cn(-c6cccc(NC(=O)CN(CC)CC)c6)nn5)cc4c3)nn2)c1,RCC4,"PCR angiogenesis array, refers to: HIF1A","5 x IC50, 2 h, normoxia",reference: untreated,fold regulation,1.13
C=CC(=O)Nc1cc(Nc2nccc(-c3c(-c4ccc5ncccc5c4)n(C)c4ccccc34)n2)c(OC)cc1N(C)CCN(C)C,NCI-H1975,"cell growth or viability, MTT","0.5 µM, 72 h",,inhibition,-6.62%
CC(C)Cc1ccc(C(C)C(=O)[Se]CC(=O)Nc2cccc(C(F)(F)F)c2)cc1 (stereo not drawn),NCI60 leukaemia subpanel,NCI60 five-dose screen,,,mean TGI,4440 nM
COc1ccccc1-c1ccncc1C(=O)Nc1nnc(OCc2ccc(Cl)cc2)s1,DLD-1 BRCA2 knock-out,immunofluorescence,"10 µM, 96 h",,γH2AX foci-positive nuclei,57.9%
Cc1c(Cl)cccc1Nc1ccccc1C(=O)[Se]CC(=O)Nc1cccc(C(F)(F)F)c1,NCI60 CNS subpanel,cell growth,"10 µM, 48 h, one-dose",,mean growth percent,-85.4%
COc1ccc(NC(=O)c2ccc3[nH]c(-c4ccc(N(C)C)cc4)nc3c2)cn1,HCEC-hTERT,IncuCyte,"concentration not given, 4 h",,dead cell to confluence ratio,4.97 and 2.09 and 2.28
COC(=O)C1=C(C)Oc2cc(OC)ccc2C1C(C(C)=O)C(=O)OC (stereo not drawn),3T3-L1 preadipocytes,"adipogenesis, Oil Red O staining","IC20, 14 days",,mean lipid content,0.719 OD492
Cc1ncsc1-c1ccc(C(C)NC(=O)C2CC(O)CN2C(=O)C(NC(=O)CCCCCCCCCCN2CCCC(Nc3ncc(Cl)c(Nc4ccccc4S(=O)(=O)C(C)C)n3)C2)C(C)(C)C)cc1 (stereo not drawn),22Rv1,"RNA-seq, refers to: TMOD2 mRNA",concentration not given,reference: DMSO,log2 fold change,-1.2
Cc1ncsc1-c1ccc([C@H](C)NC(=O)[C@@H]2C[C@@H](O)CN2C(=O)[C@@H](NC(=O)[C@H]2C[C@H](C(=O)N3CCC(c4cc(Nc5cc(C#N)ccn5)nc(N5CCC(F)(F)C5)c4)CC3)C2)C(C)(C)C)cc1,CAL-33 with inducible wild-type LZK,"MS proteomics, refers to: RNASE7","500 nM, 24 h, together with: doxycycline",reference: DMSO,protein level log2 fold change,-0.0353
O=C(C[Se]C(=O)c1cc2ccccc2[nH]1)Nc1cccc(C(F)(F)F)c1,NCI60 CNS subpanel,cell growth,"10 µM, 48 h, one-dose",,mean growth percent,-90.6%
CNc1cncc(N2Cc3cnn(Cc4ccc(F)cc4)c3C2)n1,HEK293 expressing GluA1 and GluA2,"glutamate excitotoxic cell death, CellTox Green",together with: glutamate,,IC50,3000 nM
COc1ccccc1-c1ccncc1C(=O)Nc1ccc(OCc2ccc(Cl)cc2)nn1,DLD-1 parental (BRCA2 WT),,"5 µM, average of 3 runs",reference: untreated,colony survival,101%
CCCCCCCCCCCCCCCCCCOc1ccccc1CCOP(=O)([O-])OCC[N+](C)(C)C,HOP-62,"cell growth or viability, SRB",10 µM,,inhibition,44.7%
CN(C)CCN1CCN(c2ccc3nc(-c4ccc5nc(-c6ccc(C(F)(F)F)cc6)[nH]c5c4)[nH]c3c2)CC1,HCC 2998,SRB,"10 µM, 48 h",,growth percent,84.7%
O=[C]=[Mn-2]12(=[C]=O)(=[C]=O)[O]c3cc4c(cc3=[N+]1CCc1ccccc1)[O][Mn-2](=[C]=O)(=[C]=O)(=[C]=O)([N+]=4CCc1ccccc1)[n+]1ccc(cc1)C(=O)OCCOC(=O)c1cc[n+]2cc1,HCT-15,MTT,"50 µM, 48 h, photolysed compound",,viability reduction,92%

# A few entries again:
SMILES,tested on,assay,conditions,scale,measurement,result
O=C(C[Se]C(=O)c1ccc2ccccc2c1)Nc1cccc(C(F)(F)F)c1,NCI60 CNS subpanel,cell growth,"10 µM, 48 h, one-dose",,mean growth percent,-91.6%
Cc1ncsc1-c1ccc(C(C)NC(=O)C2CC(O)CN2C(=O)C(NC(=O)CCCCCCCCCCN2CCCC(Nc3ncc(Cl)c(Nc4ccccc4S(=O)(=O)C(C)C)n3)C2)C(C)(C)C)cc1 (stereo not drawn),22Rv1,"RNA-seq, refers to: TMOD2 mRNA",concentration not given,reference: DMSO,log2 fold change,-1.2
Cn1ncc2cc(-c3cncc(Cl)c3N3CCC4(CCNC4=O)CC3)ccc21,LS174T,"gene expression, microarray, refers to: HOXB5 mRNA","concentration not given, 4 h",reference: untreated cells,log2 fold change,1.38
O=C(C[Se]C(=O)c1cccnc1Nc1cccc(C(F)(F)F)c1)Nc1cccc(C(F)(F)F)c1,NCI60 CNS subpanel,cell growth,"10 µM, 48 h, one-dose",,mean growth percent,-92.4%
